Results of several laboratories.
Every numbered part comes from another study and shows a few of its results, in no order. Positions count from the first letter of the parent shown.

Set 1
Target: Histone acetyltransferase KAT6A, both winged helices, GST fusion (KAT6A, Homo sapiens, UniProt Q92794, residues 1-181)
Technique: protein binding microarray
Molecule type: double-stranded DNA, one strand shown
Sample: in vitro
Tested at: not given
Notes: 8-mer, flanks averaged, mean of 2 arrays, mostly near background
Baseline: not given
Reading: higher = stronger binding
Construct (chain): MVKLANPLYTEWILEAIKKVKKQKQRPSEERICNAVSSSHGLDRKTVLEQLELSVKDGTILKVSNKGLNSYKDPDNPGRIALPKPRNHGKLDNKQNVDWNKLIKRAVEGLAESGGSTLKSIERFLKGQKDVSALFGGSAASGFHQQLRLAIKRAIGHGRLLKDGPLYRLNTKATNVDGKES
Strand	E-score
GGCGTTCA	0.0747
GTCTCGCA	-0.0497
CATCGTGA	0.0432
AACACGCA	0.142
ACCTTATC	-0.0677
CCAGGATC	-0.136
CACATCCA	-0.124
CTGCGGTC	0.217
GATGGTAA	-0.0964
TCCTTAGA	-0.159
CATTAGCC	-0.0959
ATCCAGGA	-0.0703
ATTCGATG	-0.084
CCCGGACA	0.202
CTCTAGCC	-0.0233
ATTGGCTC	-0.122
ATGTTCGG	0.0195
AGCCCAGA	-0.242

Set 2
Target: ABI1, truncated, D143A, DHFR fusion (Arabidopsis thaliana)
Technique: DHFR PCA, deep sequencing
Sample: yeast
Notes: methotrexate growth selection, single substitutions
Together with: (+)-ABA 710 µM
Baseline: wild-type fitted maximum
Reading: higher = stronger binding
Starting sequence: PYL1, truncated, DHFR fusion (Arabidopsis thaliana); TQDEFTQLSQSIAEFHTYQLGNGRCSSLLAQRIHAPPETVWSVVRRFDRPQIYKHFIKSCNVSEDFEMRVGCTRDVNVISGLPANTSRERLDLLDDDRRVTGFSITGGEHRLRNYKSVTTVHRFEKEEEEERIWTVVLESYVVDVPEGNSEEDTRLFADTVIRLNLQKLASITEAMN
Variant	relative binding score
A158G	85.8%
D97M	111%
D153A	68.8%
D96H	94.3%
T173E	30.9%
N22M	106%
L164F	100%
E152I	97.6%
Q167V	95.8%
I57Y	71%
S27R	91%
R88Y	104%
R163M	80.3%
V136F	104%
H110R	17.7%
T106H	97.6%
Q51D	94.7%
Y141F	90.7%
L29V	102%
R98F	95.3%

Set 3
Target: RNA binding protein fox-1 homolog 2, RRM domain, GST-SBP tag (RBFOX2, Homo sapiens, UniProt O43251-10, residues 100-194)
Technique: RNA Bind-n-Seq
Molecule type: RNA
Sample: in vitro
Tested at: 365 nM
Notes: natural RNA segment, single round, ends assumed
Baseline: no-protein control
Reading: higher = stronger binding
Shared flanks, not repeated: GGGAGUUCUACAGUCCGACGAUC … UGGAAUUCUCGGGUGCCAA
Residues (chain): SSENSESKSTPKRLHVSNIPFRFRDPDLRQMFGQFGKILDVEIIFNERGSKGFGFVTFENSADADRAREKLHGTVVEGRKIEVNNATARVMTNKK
Strand	RBNS enrichment (R)
AAGAUGAACCAAAGGAUUAGCCUCGCGCUACGUCAUUGCAUCCGCUCCCCCUCGUCCUGACUCAGCUCGGGUGUGUGCAGCAUCAGGCUGUGCCUGCUCCAGAGGCAUGG	0.446
GCUCGGAAGGCCUUGAGAGGGCUGAUGGGGAAGUCACUGAGGAUGAAUCUGUCAUCUCAGGCAAUAAUGUGUAGGUGUCACCAUGAGUCACAUACAGUUCUUUUUAGGCA	0.668
AGAGUGCCUGGCAAAAAGAUCAAAUGGGGCUGGGACUUCUCAUUGGCCAACCUGCCUUUCCCCAGAAGGAGUGAUUUUUCUAUCGGCACAAAAGCACUAUAUGGACUGGU	1.33
UAAUUGAACAUUUUCAAUUAUAUGCAGACUGACUGAUUCUAAGAUAAAUUCUAAGGAGGUUUCUAAUUUUGUAAUUGUUAAAAAUAGAGUUAAUUUUGACUUUGUUAGAU	0.635
CAGCUUCGCACAGGCUCCUGGAGGGCUGCCUGGGGGAGGCAGACAUGGGAGUGCCAAGGUGGCCAGAUGGUUCCAGGACUACAAUGUCUUUAUUUUUAACUGUUUGCCAC	1.5
GAGUGCAGAAGGGUGCGCCUCUUCCCUCUACCCCCGCACCACCUGCUGUGUGCCAGCCUGAGACGGUUCCUGCCUGUCUUGGGGGUUGGUGGAGGGUGGAGGCAGUUCUG	0.499
CUUUGGUUAUUCAUACGGAAUUGAUGAUGGAAAAGCAACUGGUUGUCUUCUAAUUGUCUUUGUCUAGAUGGAAACUGAACCUUAGCAGAUGAAUAAACCCUGAAAAGGUC	0.279
GGUUUUUAUACCCCCACUAAUGCUGUGUAUCUGUCUUUCGUUUGUUAACAUUAUUUGCUUAAUUUCUUUCAACUCACACUUUGGAUAAUACUAUCAAAAACUAAGGCUAA	0.641
UUUCAACAUGCUUUCAAUCUGUCAACACAAAGGAAAAAAAAGGCAGUGUUUAAAGAUUGUUGAUUUUUUUCCUGGGGAUAAUCUAUAUUAUACUGACUUUAUAUUAAUUA	0.935
CUUAACUUGAUUGAACUGUCUAGGAACUUUACAGAUUGUUCUGCAGUUCUCUCUUCUUUUCCUCAGGUAGGACAGCUCUAGCAUUUUCUUAAUCAGGAAUAUUGUGGUAA	0.446
GCUGCUGGAGAUUCAAAGCCCAACUGUGGGUCCGAGAGGGAAGCUGGCUGGGCUGGCUGAAGAAUGAAGACCACUGGACUCUCCGUUAAUCUCUAAGGGGUCUGCUCCCC	0.277
CAGUGGGGAUUUCUUAGAACAGGAGAGAGGAAUCCAUGAAGCAGGAGAAGCAGUGCCUGCCAGCUGUGGUGGACCUUCCUAAGAAAUAAAUAUCCUUUAUGUUUUCAAAC	0.979

Set 4
Target: CCNB1, cyclin fold, Cln2 fusion (human)
Technique: yeast growth competition, sequencing
Sample: yeast
Notes: weak parent motif
Baseline: not given
Reading: higher = stronger binding
Starting sequence: REV3L docking peptide (human); PPVIIKYIIINRF
Variant	normalised enrichment score
PPVIIKYIIIARF [N11A]	0.614
PPAIIKYIIINRF [V3A]	0.0565
PPVIIKYIIANRF [I10A]	0.353
PPVAIKYIIINRF [I4A]	-0.125
PPVIAKYIIINRF [I5A]	0.214
APVIIKYIIINRF [P1A]	0.415
PPVIIAYIIINRF [K6A]	0.0952

Set 5
Target: Prothrombin, mature alpha-thrombin (F2, Homo sapiens, UniProt P00734)
Technique: aptamer microarray, sandwich
Molecule type: DNA with 2'F-ANA
Sample: in vitro
Tested at: 200 nM
Notes: whole 15-mer aptamer, many near background
Together with: Cy3 exosite-II aptamer, 400 nM
Reading: higher = stronger binding
Strand: GGTTGGTGTGGTTGG
Modification	mean fluorescence intensity [a.u.]
2'F-ANA at 3 6 7 10 12 14 15	411
2'F-ANA at 1 3 5 6 8 9 10 13 14	63.6
2'F-ANA at 2 3 4 5 6 7 10 11 12 13 15	47.9
2'F-ANA at 4 5 7 8 9 11 12	134
2'F-ANA at 1 7 8 9 11 15	181
2'F-ANA at 2 3 4 9 10 11 12 13	254
2'F-ANA at 1 2 5 7 12 13 14	94.9
2'F-ANA at 2 3 4 5 7 9 10 12 14 15	134
2'F-ANA at 1 2 3 5 7 8 9 10 11 12	74
2'F-ANA at 1 3 5 6 7 9 10 12 13 15	49.3
2'F-ANA at 1 5 6 9 10 11 13 14 15	49.2
2'F-ANA at 2 3 4 5 12 13	146
2'F-ANA at 2 6 8 11 12 13 14	149
2'F-ANA at 3 4 6 8 10 12 13 15	205
2'F-ANA at 3 5 6 15	109
2'F-ANA at 1 2 3 4 5 12 14 15	50.4
2'F-ANA at 3 6 7 8 11 12 13 14	549
2'F-ANA at 2 3 4 5 6 11 12	145

Set 6
Target: UBE2B UBC core domain (UniProt P63146)
Sequence of UniProt P63146 (whole entry, looked up): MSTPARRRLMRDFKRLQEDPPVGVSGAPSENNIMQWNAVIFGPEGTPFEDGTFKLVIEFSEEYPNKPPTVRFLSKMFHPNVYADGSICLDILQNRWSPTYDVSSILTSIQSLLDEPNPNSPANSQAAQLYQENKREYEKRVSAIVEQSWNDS
Technique: yeast two-hybrid
Sample: yeast
Notes: mostly zero background
Baseline: not given
Reading: higher = stronger interaction
B1: MAP3K1 RING domain (UniProt Q13233); chain NSIKDEEEQMCPICLLGMLDEESLTVCEDGCRNKLHHHCMSIWAEECRRNREPLICPLCRSKWRSHDFYS
B2: SH3RF1 RING domain (UniProt Q7Z6J0); chain DESALLDLLECPVCLERLDASAKVLPCQHTFCKRCLLGIVGSRNELRCPECRTLVGSGVEEL
B3: RNF121 RING domain (UniProt Q9H920); chain MPTKHLSDSVCAVCGQQIFVDVSEEGIIENTYRLSCNHVFHEFCIRGWCIVGKKQTCPYCKEKVDLKRMFS
B4: RNF19A RING domain (UniProt Q9NV58); chain ISKQIGDFIECPLCLLRHSKDRFPDIMTCHHRSCVDCLRQYLRIEISESRVNISCPECTERFNPHDIR
B5: SYTL4 RING domain (UniProt Q96C24); chain RGSQHYSDRTCARCQESLGRLSPKTNTCRGCNHLVCRDCRIQESNGTWRCKVCAKEIELKKAT
B6: ZMIZ2 RING domain (UniProt Q8NF64); chain GTIPGTPGPNGEDGVEQTAIKVSLKCPITFRRIQLPARGHDCRHIQCFDLESYLQLNCERGTWRCPVCNKTALLEGLEVDQYMLGILIYIQNSDYEEITIDPTCSWK
B7: RFWD3 RING domain (UniProt Q6PCD5); chain ASMDEEEGDTCTICLEQWTNAGDHRLSALRCGHLFGYRCISTWLKGQVRKCPQCNKKARHSDIVV
B8: RNF133 RING domain (UniProt Q8WVZ7); chain DEEINPNGDSCVICFERYKPNDIVRILTCKHFFHKNCIDPWILPHGTCPICKCDILKVLGIQ
Molecule	lacZ reporter activity
B1 (MAP3K1 RING domain)	0
B2 (SH3RF1 RING domain)	0
AVPSGLEENLCKICMDSPIDCVLLECGHMVTCTKCGKRMNECPICRQYVIRAVHVF (RFFL RING domain (UniProt Q8WZ73))	0
AMYLQENGIDCPKCKFSYALARGGCMHFHCTQCRHQFCSGCYNAFYAKNKC (RNF31 RING domain (UniProt Q96EP0))	0
B3 (RNF121 RING domain)	0
GSDDEEIPFKCFICRQSFQNPVVTKCRHYFCESCALQHFRTTPRCYVCDQQTNGVFNPA (RNF113A RING domain (UniProt O15541))	0
B4 (RNF19A RING domain)	0
B5 (SYTL4 RING domain)	0
PEDRESLKSACVVCLSSFKSCVFLECGHVCSCTECYRALPEPKKCPICRQAITRVIPLY (MUL1 RING domain (UniProt Q969V5))	0
B6 (ZMIZ2 RING domain)	0
B7 (RFWD3 RING domain)	0
B8 (RNF133 RING domain)	0

A few entries again (set 5):
Modification	mean fluorescence intensity [a.u.]
2'F-ANA at 1 3 5 6 7 9 10 12 13 15	49.3
2'F-ANA at 3 6 7 8 11 12 13 14	549
2'F-ANA at 3 5 6 15	109
2'F-ANA at 1 2 3 4 5 12 14 15	50.4
2'F-ANA at 2 6 8 11 12 13 14	149
2'F-ANA at 1 7 8 9 11 15	181
2'F-ANA at 2 3 4 5 6 7 10 11 12 13 15	47.9
2'F-ANA at 2 3 4 5 6 11 12	145
2'F-ANA at 1 3 5 6 8 9 10 13 14	63.6
2'F-ANA at 4 5 7 8 9 11 12	134
2'F-ANA at 2 3 4 5 12 13	146
2'F-ANA at 3 4 6 8 10 12 13 15	205
2'F-ANA at 1 5 6 9 10 11 13 14 15	49.2
2'F-ANA at 1 2 3 5 7 8 9 10 11 12	74
